Assay results from different studies.
Numbered parts are unrelated; each lists some results of a single study.
UniProt P48730, sequence (whole entry, looked up): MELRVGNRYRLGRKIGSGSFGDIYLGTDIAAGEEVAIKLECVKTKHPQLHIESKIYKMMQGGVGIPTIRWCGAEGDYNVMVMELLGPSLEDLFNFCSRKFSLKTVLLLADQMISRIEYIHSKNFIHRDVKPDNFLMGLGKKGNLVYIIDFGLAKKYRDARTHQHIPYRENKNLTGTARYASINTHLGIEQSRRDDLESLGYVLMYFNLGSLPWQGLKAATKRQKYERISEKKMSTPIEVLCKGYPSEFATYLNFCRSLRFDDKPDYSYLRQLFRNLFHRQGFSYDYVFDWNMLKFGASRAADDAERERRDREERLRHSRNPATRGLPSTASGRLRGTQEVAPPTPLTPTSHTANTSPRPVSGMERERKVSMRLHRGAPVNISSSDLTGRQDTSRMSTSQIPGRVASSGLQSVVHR
UniProt P46734, sequence (whole entry, looked up): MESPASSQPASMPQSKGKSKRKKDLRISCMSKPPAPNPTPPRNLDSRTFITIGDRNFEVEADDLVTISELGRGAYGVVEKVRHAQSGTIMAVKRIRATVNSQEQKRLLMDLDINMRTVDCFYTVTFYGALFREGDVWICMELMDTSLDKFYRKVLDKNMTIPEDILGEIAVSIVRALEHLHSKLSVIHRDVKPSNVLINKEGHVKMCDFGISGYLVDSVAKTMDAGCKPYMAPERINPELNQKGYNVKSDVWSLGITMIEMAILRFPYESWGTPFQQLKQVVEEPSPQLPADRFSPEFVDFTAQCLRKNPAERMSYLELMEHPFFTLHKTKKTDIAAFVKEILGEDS

Block 1 — read-out: cell-free assay; method: competition with immobilised ligand; tested at: 1 µM
Compound: COc1ccc2c(c1)O[C@@H](c1ccc(OC)c(OC)c1)C[C@H]2NC(=O)C1(c2ccc3c(c2)OC(F)(F)O3)CC1
target	remaining binding
Dual specificity mitogen-activated protein kinase kinase 3 (MAP2K3, Homo sapiens, UniProt P46734)	78%
Mitogen-activated protein kinase kinase kinase 5 (MAP3K5, Homo sapiens, UniProt Q99683)	94%
Epidermal growth factor receptor (EGFR, Homo sapiens, UniProt P00533, del752-759)	100%
Casein kinase I isoform delta (CSNK1D, Homo sapiens, UniProt P48730)	100%

Block 2 — read-out: enzyme activity; mode: inhibitor; tested at: 0.5 µM; baseline: control
Target: Casein kinase I isoform delta (CSNK1D, Homo sapiens, UniProt P48730)
Compound	remaining activity
Nc1ccc2ncnc(NCCc3ccc(Oc4ccccc4)cc3)c2c1	100%
Cc1ccc(NC(=O)c2ccc(CN3CCN(C)CC3)cc2)cc1Nc1nc(-c2cccnc2)cs1	92.8%
OCC(O)CCON=C1C(c2c(O)[nH]c3ccccc23)=Nc2ccccc21 (stereo not drawn)	52.9%
O=C(CCCc1ccc(-c2ccccc2F)cc1)Nc1ccc(O)cc1	102%
CO[C@H]1C[C@@H]2CC[C@@H](C)[C@@](O)(O2)C(=O)C(=O)N2CCCC[C@H]2C(=O)O[C@H]([C@H](C)C[C@@H]2CC[C@@H](O)[C@H](OC)C2)CC(=O)[C@H](C)/C=C(\C)[C@@H](O)[C@@H](OC)C(=O)[C@H](C)C[C@H](C)/C=C/C=C/C=C/1C	110%
CCOC(=O)c1c(C)[nH]c(/C=C2\C(=O)Nc3ccccc32)c1C	96.4%
C#Cc1cccc(Nc2ncnc3cc(OCCOC)c(OCCOC)cc23)c1	86.9%

Block 3 — target: Sox-I, HMG box (Salpingoeca helianthica); method: Spec-seq; form: double-stranded DNA, one strand shown; sample: in vitro; tested at: not given; notes: whole probe, mean of replicates; baseline: not given; reading: lower = stronger binding; all sequences stand within: GAGTCGTCTCGTCAGCAC … CCGTAGAGCACTCAGGTC
Residues (chain): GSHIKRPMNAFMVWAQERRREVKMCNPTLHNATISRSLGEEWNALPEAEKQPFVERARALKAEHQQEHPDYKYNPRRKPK
Sequence	relative binding energy [ln ratio]
CCTGGTT	0.782
CATCTAT	0.427
TCGGGTT	0.972
TGTCGTT	0.52
TTGGGTT	0.912
GCAGGTT	1.03
CATACGG	0.606
CATTCTG	0.77

Block 4 — method: RNA Bind-n-Seq; form: RNA; sample: in vitro; tested at: 20 nM; notes: 6-mer, flanks averaged, single round; added: 150 mM KCl; baseline: input library; reading: higher = stronger binding
Target: TAR DNA-binding protein 43, full length, His tag (TARDBP, Homo sapiens, UniProt Q13148, residues 1-414)
Sequence	6-mer enrichment (R)
UGUUUU	0.774
GCCGUG	1.39
UCGAAU	0.641
UGGCCU	0.812
GAGUUA	0.816
ACCAGU	0.683
AUUAUG	0.672
UGGACA	0.902
